Measured values of several laboratories.
Each line is one published result; not all experiments were run side by side.
Organism: Staphylococcus aureus

SMILES | test | test system | setting | MIC
CCCCCCCCCC(=O)N[C@@H](Cc1c[nH]c2ccccc12)C(=O)N[C@H](CC(N)=O)C(=O)N[C@@H](CC(=O)O)C(=O)N[C@@H]1C(=O)NCC(=O)N[C@@H](CCCN)C(=O)N[C@@H](CC(=O)O)C(=O)N[C@H](C)C(=O)N[C@@H](CC(=O)O)C(=O)NCC(=O)N[C@H](CO)C(=O)N[C@@H]([C@H](C)CC(=O)O)C(=O)N[C@@H](CC(=O)c2ccccc2N)C(=O)O[C@@H]1C |  | CRB, PBP4 deletion |  | 2 µg/mL
Cc1ccc2[nH]c3c(c2c1)CCCC3NCCc1ccc(Br)cc1 (stereo not drawn) | broth microdilution | SA113 |  | 4 µg/mL
COC(=O)c1cc(-c2cccc(NC(=S)Nc3cc(C(F)(F)F)cc(C(F)(F)F)c3)c2)on1 |  | ATCC 29213, CAMHB | 16 to 18 h | 16 µg/mL
CC[C@H](C)[C@H](NC(=O)[C@H](CCCCN)NC(=O)[C@H](CC(=O)O)NC(=O)[C@H](CC(C)C)NC(=O)[C@@H](NC(=O)[C@H](CC(N)=O)NC(=O)[C@H](CC(C)C)NC(=O)[C@@H](NC(=O)[C@H](Cc1ccccc1)NC(=O)[C@H](CCCCN)NC(=O)[C@H](CCCCN)NC(=O)CNC(=O)[C@H](C)NC(=O)[C@H](CC(N)=O)NC(=O)[C@H](CCCCN)NC(=O)[C@H](Cc1ccccc1)NC(=O)[C@H](CC(N)=O)NC(=O)[C@H](CCC(=O)O)NC(=O)[C@H](Cc1c[nH]c2ccccc12)NC(=O)[C@H](CC(C)C)NC(=O)[C@@H](N)CO)[C@@H](C)CC)[C@@H](C)CC)C(=O)N[C@@H](CCCNC(=N)N)C(N)=O |  | ATCC 6538 | overnight, 37 °C, together with: 2 mM CaCl2 | 2 µM
CC[C@H](C)[C@H](NC(=O)[C@H](C)N)C(=O)N[C@@H](CO)C(=O)NCC(=O)N[C@@H](CO)C(=O)N[C@@H](CC(C)C)C(=O)N[C@H](C(=O)N[C@H](C(=O)N[C@@H](CC(C)C)C(=O)N[C@@H](Cc1ccccc1)C(=O)NCC(=O)N[C@@H](Cc1ccc(O)cc1)C(=O)N[C@@H](CCCNC(=N)N)C(=O)N[C@@H](CCCCN)C(=O)N[C@@H](CCCNC(=N)N)C(=O)N[C@@H](CCCCN)C(=O)N[C@@H](CCCNC(=N)N)C(=O)N[C@@H](CCCCN)C(N)=O)[C@@H](C)O)C(C)C | broth microdilution |  | 24 h, 37 °C | 128 µM
CC[C@H](C)[C@H](NC(=O)[C@H](CC(C)C)NC(=O)[C@H](CCCNC(=N)N)NC(=O)[C@@H](N)CCCNC(=N)N)C(=O)N[C@@H](CCCNC(=N)N)C(=O)N[C@@H](CCCCN)C(=O)N[C@@H](CC(C)C)C(=O)N[C@@H](CCCCN)C(=O)NCC(=O)N[C@@H](CC(C)C)C(=O)N[C@@H](CCCCN)C(=O)N[C@@H](CCCCN)C(=O)N[C@@H](Cc1ccc(O)cc1)C(=O)N[C@@H](CC(C)C)C(=O)N[C@@H](Cc1ccc(O)cc1)C(=O)N[C@@H](Cc1ccccc1)C(=O)N[C@@H](CCCCN)C(=O)N[C@@H](CC(C)C)C(=O)N[C@@H](CCC(N)=O)C(=O)N[C@@H](CC(C)C)C(=O)N[C@@H](CC(C)C)C(=O)N[C@@H](CCCCN)C(=O)N[C@@H](CCCCN)C(N)=O |  | KCTC 1621, Mueller-Hinton broth | together with: 1 mM MgCl2 | 8 µM
CC[C@H](C)[C@H](NC(=O)[C@H](Cc1ccccc1)NC(=O)[C@@H](NC(=O)[C@H](Cc1c[nH]c2ccccc12)NC(=O)[C@@H]1CCCN1C(=O)[C@@H](NC(=O)[C@H](C)N)[C@@H](C)CC)[C@@H](C)CC)C(=O)N[C@@H](Cc1ccccc1)C(=O)N[C@@H](CCCNC(=N)N)C(=O)N[C@@H](CC(C)C)C(=O)N[C@@H](CC(C)C)C(=O)N[C@@H](CCCNC(=N)N)C(=O)N[C@@H](CCCCN)C(=O)NCC(N)=O | broth microdilution | ATCC 35556 | 18 h, 37 °C | 1.88 µM
CCCCCCC#Cc1cncc(-c2nnc(SCc3cc(C(F)(F)F)cc(C(F)(F)F)c3)n2CCCN)c1 | broth microdilution | Mu50 MRSA VISA | 18 to 24 h, 37 °C | 4 µg/mL
CC(C)C[C@@H](NC(=O)CNC(=O)[C@@H](CCCCN)NC(=O)[C@@H](CC(C)C)NC(=O)[C@@H](CCCCN)NC(=O)[C@@H](CCCNC(=N)N)NC(=O)[C@@H](CC(C)C)NC(=O)[C@@H](CC(C)C)NC(=O)[C@@H](CCCNC(=N)N)NC(=O)[C@H](N)CCCNC(=N)N)C(=O)N[C@H](CCCCN)C(=O)N[C@H](CCCCN)C(=O)N[C@H](Cc1ccc(O)cc1)C(=O)N[C@H](CC(C)C)C(=O)N[C@H](Cc1ccc(O)cc1)C(=O)N[C@H](Cc1ccccc1)C(=O)N[C@H](CCCCN)C(=O)N[C@H](CC(C)C)C(=O)N[C@H](CCC(N)=O)C(=O)N[C@H](CC(C)C)C(=O)N[C@H](CC(C)C)C(=O)N[C@H](CCCCN)C(=O)N[C@H](CCCCN)C(N)=O |  | KCTC 1621, Mueller-Hinton broth | together with: 4.5 mM KCl | 8 µM
CC(C)C[C@H](NC(=O)CNC(=O)CNC(=O)CNC(=O)[C@H](Cc1ccc(O)cc1)NC(=O)[C@H](CC(C)C)NC(=O)[C@@H](NC(=O)CNC(=O)[C@H](Cc1ccc(O)cc1)NC(=O)[C@H](CCCCN)NC(=O)[C@H](CC(N)=O)NC(=O)[C@@H](NC(=O)[C@H](CCCCN)NC(=O)[C@H](Cc1c[nH]c2ccccc12)NC(=O)CN)[C@@H](C)O)[C@@H](C)O)C(=O)N[C@@H](CCCCN)C(=O)N[C@@H](CCCCN)C(=O)N[C@@H](CC(C)C)C(=O)N[C@@H](CC(C)C)C(=O)N[C@@H](CC(C)C)C(=O)N[C@@H](CC(C)C)C(=O)N[C@@H](CC(C)C)C(=O)N[C@@H](CCCCN)C(=O)N[C@@H](CCCCN)C(=O)N[C@@H](CC(C)C)C(=O)NCC(=O)O |  | ATCC 25923 | together with: 4.5 mM KCl | 16 µg/mL
CC[C@H](C)[C@H](NC(=O)[C@H](CC(C)C)NC(=O)[C@H](CCCNC(=N)N)NC(=O)[C@@H](N)CCCNC(=N)N)C(=O)N[C@@H](CCCNC(=N)N)C(=O)N[C@H](C(=O)N[C@@H](CC(=O)O)C(=O)N[C@H](C(=O)NCC(=O)N1CCC[C@H]1C(=O)N[C@H](C(=O)N[C@H](C(=O)N[C@@H](Cc1ccc(O)cc1)C(=O)N[C@@H](CC(=O)O)C(=O)N[C@@H](Cc1ccc(O)cc1)C(=O)N[C@@H](Cc1ccccc1)C(=O)N[C@@H](CCCCN)C(=O)N[C@@H](CC(=O)O)C(=O)N[C@@H](CCC(N)=O)C(=O)N[C@@H](CC(C)C)C(=O)N[C@@H](CC(C)C)C(=O)N[C@@H](CCCCN)C(=O)N[C@@H](CCCCN)C(N)=O)[C@@H](C)CC)[C@@H](C)CC)[C@@H](C)O)[C@@H](C)O |  | CCARM 3089, methicillin-resistant, Mueller-Hinton broth | 24 h | > 128 µM
Cn1c(=O)n(-c2ccc(C(C)(C)C#N)cc2)c2c3cc(-c4cnc5ccccc5c4)ccc3ncc21 |  | NCTC 8325 |  | > 30 µM
